# Measured values gathered from unrelated publications.
# Parts stem from different laboratories: compare values within a part only. Positions count from the first letter of the parent shown.

# Study 1
# Target: CCNA2, cyclin fold, Cln2 fusion (human)
# Method: yeast growth competition, sequencing
# Sample: yeast
# Notes: strong parent motif
# Reference: not given
# Direction: higher = stronger binding
# Starting sequence: ORC1 docking peptide (human); PRARKRLELGNLG
Change,normalised enrichment score
QRARKRLELGNLG [P1Q],4.42
PRARKRLKLGNLG [E8K],3.06
PRARKRLELMNLG [G10M],4.01
PVARKRLELGNLG [R2V],4.07
PRARKRLERGNLG [L9R],1.33
TRARKRLELGNLG [P1T],4.6
PRARKRLELGSLG [N11S],4.66
PRAHKRLELGNLG [R4H],1.29
PRARKRHELGNLG [L7H],0.978
PRARKRLELGNLL [G13L],3.54
PRARKRVELGNLG [L7V],0.181
PRARKRYELGNLG [L7Y],0.252
PRATKRLELGNLG [R4T],1.38
PRARKRLALGNLG [E8A],3.7
PRARKRPELGNLG [L7P],-1.15
PRAFKRLELGNLG [R4F],1.08
PRARRRLEFGNLG [K5R L9F],6.95
PAARKRLELGNLG [R2A],4.44
PRARTRLELGNLG [K5T],1.67
PRFRKRLELGNLG [A3F],1.69
PRARYRLELGNLG [K5Y],1.06
PRARKRLTLGNLG [E8T],2.11
PRARKRLMLGNLG [E8M],4.2
PRARKRLSLGNLG [E8S],3.84
PRARHRLELGNLG [K5H],1.81

# Study 2
# Target: RING finger protein unkempt homolog, zinc fingers 1-6, GST-SBP tag (UNK, Homo sapiens, UniProt Q9C0B0, residues 30-357)
# Chain of UniProt Q9C0B0 (30-357, looked up): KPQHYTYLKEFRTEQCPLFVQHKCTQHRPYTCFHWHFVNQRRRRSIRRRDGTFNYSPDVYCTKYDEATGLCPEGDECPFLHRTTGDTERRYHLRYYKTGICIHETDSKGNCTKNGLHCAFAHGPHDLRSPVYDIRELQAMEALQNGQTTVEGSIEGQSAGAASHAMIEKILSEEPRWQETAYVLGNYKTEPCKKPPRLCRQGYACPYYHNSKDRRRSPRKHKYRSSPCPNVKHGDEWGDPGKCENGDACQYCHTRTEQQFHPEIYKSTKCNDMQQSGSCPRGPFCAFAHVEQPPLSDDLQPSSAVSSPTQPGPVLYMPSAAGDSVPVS
# Method: RNA Bind-n-Seq
# Form: RNA
# Sample: in vitro
# Concentration: not given
# Notes: RNA with constant flanks, human and mouse sites, ends assumed
# Reference: input RNA pool
# Direction: higher = stronger binding
Oligonucleotide,bound/input enrichment [ratio]
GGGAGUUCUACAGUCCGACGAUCCCAGCCCCAGUGCCAUCCAGGAGAAACCCCCCUGGCGGCAAGUCCAGCCUGGUCUUGGGUUAGCUUCUUGUGUUGGAACUCUGUCCUUCUGUCUGUCUGUUUGUUGUCCCAUGCUUGGGACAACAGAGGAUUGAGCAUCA,0.337
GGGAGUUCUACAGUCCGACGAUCAUGGACCAUCUUCCUAGGAACUCCCAAGUAAACUAUUUCAGGACAUGUAUCUGCUGAAAUGUAUUUUAUUUUCAAGGUGGAGGGGAAAAUCGUCUGUUUCCUAAAUCCUGUUUAGGAUCUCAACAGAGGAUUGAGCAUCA,0.195
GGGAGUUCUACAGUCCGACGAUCAAGAACAAACAGAAAGAGGAUGUUGACAAGAUGGAGAAUUCUGAAAUGAUAAAGACCAUGAAAAAAAAACUACAGACGGAGAUAAAGAUCACUACAGUUGUUCAACAUACAUUCCAGGGCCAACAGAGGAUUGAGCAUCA,0.181
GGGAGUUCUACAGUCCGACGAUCGCCAGAGAGGACGUUUCCAACUCAAAAAUGCAGGCUCAACAGUACCAGCAGCAGCGUCGAAAAUUUGCAGCUGCCUUCUUGGCAUUCAUUUUCAUACUGGCAGCUGUGGAUACUGCUGAACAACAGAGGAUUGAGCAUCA,0.163
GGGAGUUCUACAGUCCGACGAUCUCCCCCUUUGAUCAAAUGAAGACUGCCUCCAAUAUAGGUGGAUUUAAUGCAGCAAUUAAAAAUAGUCCACCUGCCAUGUCUCAGUAUAUCACUGUAGGGUCCAAUCCAUUUACUGGCUUCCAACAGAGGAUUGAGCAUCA,0.555
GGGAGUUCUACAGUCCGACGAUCGAGGAAGAGAAUGUUGUUUUAAAGUUCUCUGAACAGGGGGGAACCCCACAGAAUGUGGCCACUAGCAGCUCCCUCACAGCACAUCUCAGAAGCCUCUCCAAAGGAGAUUCCCCUGUGACUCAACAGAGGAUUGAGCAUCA,0.139
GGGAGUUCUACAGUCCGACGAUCUAAGCAUUCAUUUCACAACUAGAUUGUAUAUGGUAUUUGGCUGUGAUGAGACUCCCAUUAUUCAGUAAACCCUCAUCUCAUUCAGCAGGCACAUGUUAAACAGCAUUGUCGUUGGUGUGACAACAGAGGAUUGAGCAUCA,3.06
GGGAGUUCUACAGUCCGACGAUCGUGACUUUGGAAGUCCGUAGUGUCUCAUUGCAGAUAAUUUUUAGCUUAGGGCCUGGUGGCUAGGUCGGUUCUCUCCUUUCCAGUCGGAGACCUCUGCCGCAAACAUGCUCCGCCAGAUCACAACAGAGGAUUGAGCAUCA,7.75

# Study 3
# Target: MAFF, bZIP domain (human)
# Method: DHFR protein complementation
# Sample: yeast
# Notes: single substitutions, most at no-binding floor
# Reference: wild-type JUN-FOS pair
# Direction: higher = stronger binding
# Starting sequence: JUN, bZIP domain (human); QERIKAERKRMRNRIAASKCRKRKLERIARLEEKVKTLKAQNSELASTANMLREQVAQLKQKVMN; partner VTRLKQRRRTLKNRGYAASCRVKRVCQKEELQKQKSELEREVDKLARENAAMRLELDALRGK
Change,binding fitness [natural log]
K39T,-1.53
L31D,-1.24
Q55V,-1.43
K39I,-1.52
T37E,-1.23
Q41E,-1.45
A49M,-1.47
L31G,-1.49
Q55F,-1.57
E44N,-1.46
V35H,-1.52
L31R,-1.53

# Study 4
# Target: Histone acetyltransferase KAT6A, both winged helices, GST fusion (KAT6A, Homo sapiens, UniProt Q92794, residues 1-181)
# Method: protein binding microarray
# Form: double-stranded DNA, one strand shown
# Sample: in vitro
# Concentration: not given
# Notes: 8-mer, flanks averaged, mean of 2 arrays, mostly near background
# Reference: not given
# Direction: higher = stronger binding
# Target sequence (chain): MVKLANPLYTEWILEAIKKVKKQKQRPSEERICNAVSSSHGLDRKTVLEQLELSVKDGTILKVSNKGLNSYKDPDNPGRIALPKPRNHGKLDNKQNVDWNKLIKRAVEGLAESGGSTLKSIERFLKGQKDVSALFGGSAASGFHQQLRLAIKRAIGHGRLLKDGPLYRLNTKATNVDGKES
Oligonucleotide,E-score
CGGTTAGA,0.0642
ACTCCACA,-0.232
CTTCCATA,-0.148
GGCAAGGA,-0.0795
AAAATCTA,-0.0156
ATCATCGC,0.11
CCGCAGCA,0.0418
GTCGGGGA,0.127
ATACGGCG,0.335
ACTGTGGC,-0.169
ACCGCACT,0.141
AGGTTGCA,-0.0451
AATAAGGC,-0.0445
AGCGTGTG,0.0619
AACACAGA,-0.12
ATTGGTTA,-0.177
TATATGAA,-0.0218
GACTCGCC,0.0728
CTTAATCC,-0.0386
CGATCGGA,0.116
CAGCCTAG,-0.208
CATAGAGG,-0.0836
AGTCTAAG,-0.0195
ACCGGTAC,0.186
GTGGGGAA,-0.0829

# Study 5
# Target: ABI1, truncated, D143A, DHFR fusion (Arabidopsis thaliana)
# Method: DHFR PCA, deep sequencing
# Sample: yeast
# Notes: methotrexate growth selection, single substitutions
# Together with: (+)-ABA 17 µM
# Reference: wild-type fitted maximum
# Direction: higher = stronger binding
# Starting sequence: PYL1, truncated, DHFR fusion (Arabidopsis thaliana); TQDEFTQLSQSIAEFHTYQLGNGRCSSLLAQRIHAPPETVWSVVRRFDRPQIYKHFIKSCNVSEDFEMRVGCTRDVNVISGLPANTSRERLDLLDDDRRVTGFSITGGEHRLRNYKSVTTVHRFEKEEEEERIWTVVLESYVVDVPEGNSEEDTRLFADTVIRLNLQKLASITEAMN; partner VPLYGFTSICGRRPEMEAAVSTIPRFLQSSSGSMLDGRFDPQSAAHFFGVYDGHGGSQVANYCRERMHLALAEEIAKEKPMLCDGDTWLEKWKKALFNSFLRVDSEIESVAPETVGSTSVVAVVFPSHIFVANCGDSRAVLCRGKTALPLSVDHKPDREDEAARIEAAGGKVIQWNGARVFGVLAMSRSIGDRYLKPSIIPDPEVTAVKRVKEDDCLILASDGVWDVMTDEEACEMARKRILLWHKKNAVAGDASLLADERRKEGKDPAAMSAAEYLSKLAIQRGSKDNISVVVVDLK
Change,relative binding score [%]
I105P,3.88
R49G,27.3
G81E,3.87
K54F,-14
G81V,5.18
D92T,50.3
I133Y,96.3
Y18K,69.3
F157G,-4.92
W134V,94.3

# Single results of other studies
Substance,target,assay,system,setting,how to read,endpoint,result
"PhoQ, residues 284 288 289 292 302 303 GNNTDL","PhoP, residues 12 14 15 18 19 TPLRH (Escherichia coli, UniProt P23836)","Sort-seq, refers to: YFP reporter",E. coli,"PhoQ-PhoP variant library, together with: 10 µM Mg2+","reference: high Mg2+ state, higher = stronger signaling",fold induction,7.53
